# Assay results gathered from unrelated publications.
# Lines come from different studies, so protocols differ. ± marks the error that the study gave.
SMILES,organism,assay,system,conditions,IC50
CCc1ccc(COP(=O)(O)Oc2c3c(c(OP(=O)(O)OCc4ccc(CC)cc4)c4c2C2CC4c4cc5c(cc42)C2CC5c4ccccc42)C2CC3c3cc4c(cc32)C2CC4c3ccccc32)cc1,human respiratory syncytial virus,"viral infection, GFP reporter, flow cytometry",A549,virus pretreated 30 min,6.1 µM
CC1N=C(CCCCCCCCCCC2=CC(CCCCCCCCCCC3=NC(C)C(O)CC3)C3CCCN3C2)CCC1O (stereo not drawn),Mycobacterium intracellulare,"microbial growth, resazurin",ATCC23068,,9.72 µg/mL
O=C(C1CCN(c2nnnn2-c2ccccc2)CC1)N1CCCc2ccccc21,Plasmodium falciparum,parasite growth,DD2,"72 h, drug-resistant strain, blood stage",0.72 µM
CC(=O)CCC1C(=O)NC(C(C)C)C(=O)NC(Cc2cc(O)cc(F)c2)C(=O)N2CCCC(N2)C(=O)OC(C(C)=CC=CC(=O)N2CCCCO2)CC=CC=CC(O)C(C)C1O (stereo not drawn),hepatitis B virus,"viral replication, refers to: HBeAg",HBV stable cell line,,0.35 µM
CC[C@H](C)[C@H](NC(=O)[C@H](CC(C)C)NC(=O)[C@H](Cc1c[nH]cn1)NC(=O)[C@H](Cc1c[nH]cn1)NC(=O)[C@@H](NC(=O)[C@H](Cc1ccccc1)NC(=O)[C@H](CC(N)=O)NC(=O)[C@H](Cc1c[nH]c2ccccc12)NC(=O)[C@@H](NC(=O)[C@H](Cc1c[nH]cn1)NC(=O)[C@H](Cc1c[nH]cn1)NC(=O)[C@H](Cc1c[nH]c2ccccc12)NC(=O)[C@@H](N)CC(C)C)[C@@H](C)CC)C(C)C)C(N)=O,Herpes simplex virus 1,"virus inactivation, plaque reduction","Vero, F",37 °C,0.87 µg/mL
CCNCCN(C)c1ccc(Nc2cc(NC3CC3)n3ncc(C#N)c3n2)cc1NC(=O)CC,murine hepatitis virus,"viral replication, nanoluciferase reporter",DBT,10 h,0.251 µM
CC[C@H](C)[C@H](NC(=O)[C@H](Cc1ccccc1)NC(=O)[C@H](CC(=O)O)NC(=O)[C@H](CCCCN)NC(=O)[C@H](C)NC(=O)[C@H](CCCCN)NC(=O)[C@H](CC(N)=O)NC(=O)[C@H](CC(C)C)NC(=O)[C@H](Cc1c[nH]c2ccccc12)NC(=O)[C@H](CCC(=O)O)NC(=O)[C@H](CCCCN)NC(=O)[C@@H](NC(=O)CN)[C@@H](C)O)C(=O)N[C@@H](CCCCN)C(=O)N[C@@H](CCC(=O)O)C(=O)N[C@@H](CCCCN)C(=O)NCC(=O)N[C@@H](CC(C)C)C(=O)NCC(=O)N[C@@H](CCSC)C(=O)N[C@@H](CC(C)C)C(=O)N[C@@H](CO)C(=O)N[C@@H](C)C(=O)N[C@@H](C)C(=O)N[C@@H](C)C(=O)N[C@@H](CC(N)=O)C(=O)N[C@@H](C)C(=O)N[C@@H](C)C(=O)N[C@@H](CC(C)C)C(=O)N[C@@H](CC(N)=O)C(=O)O,Haemonchus contortus,larval development,Kirby isolate,"6 days, 26 °C",31.2 ± 3.9 µM
COc1cc(/C=C/c2ccc(OC)c(O)c2)cc(OC)c1,Streptococcus mutans,"biofilm formation, crystal violet",,,122 µM
CSC[C@H]1CN(Cc2c[nH]c3c(N)ncnc23)C[C@@H]1O,Campylobacter jejuni,cell growth,,144 h,3.5 ± 0.7 µM

# Some of these lines once more:
SMILES,organism,assay,system,conditions,IC50
CC1N=C(CCCCCCCCCCC2=CC(CCCCCCCCCCC3=NC(C)C(O)CC3)C3CCCN3C2)CCC1O (stereo not drawn),Mycobacterium intracellulare,"microbial growth, resazurin",ATCC23068,,9.72 µg/mL
